Published values from different studies.
Each line is one published result; not all experiments were run side by side.
Organism: Escherichia coli

CC[C@H](C)[C@H](NC(=O)[C@@H](NC(=O)[C@H](CCCCN)NC(=O)[C@H](CCCCN)NC(=O)[C@@H](NC(=O)[C@H](Cc1c[nH]c2ccccc12)NC(=O)[C@H](CCCCN)NC(=O)[C@H](Cc1c[nH]c2ccccc12)NC(=O)[C@H](CC(C)C)NC(=O)[C@H](CCCCN)NC(=O)[C@H](CCCCN)NC(=O)[C@@H](N)C(C)C)[C@@H](C)CC)C(C)C)C(N)=O  MIC (24 h, 37 °C, Mueller-Hinton broth, MgCl2 1 mM): 32 µM
CC(C)C[C@@H](NC(=O)[C@@H](CCCNC(=N)N)NC(=O)[C@H](N)CCCNC(=N)N)C(=O)N[C@H](CC(C)C)C(=O)N[C@H](CCCNC(=N)N)C(=O)N[C@H](CCCCN)C(=O)N[C@H](CC(C)C)C(=O)N[C@H](CCCCN)C(=O)NCC(=O)N[C@H](CCCCN)C(=O)N[C@H](CCCCN)C(=O)N[C@H](CC(C)C)C(=O)N[C@H](Cc1ccc(O)cc1)C(=O)N[C@H](CC(C)C)C(=O)N[C@H](Cc1ccc(O)cc1)C(=O)N[C@H](Cc1ccccc1)C(=O)N[C@H](CCCCN)C(=O)N[C@H](CC(C)C)C(=O)N[C@H](CCC(N)=O)C(=O)N[C@H](CC(C)C)C(=O)N[C@H](CC(C)C)C(=O)N[C@H](CCCCN)C(=O)N[C@H](CCCCN)C(N)=O  MIC (broth microdilution; KCTC 1682, Mueller-Hinton broth; with: NH4Cl 6 µM): 8 µM
CC1(C)[C@H](NC(=O)/C(=N\OCC(=O)N2CCC(C(=O)O)C2)c2nsc(N)n2)C(=O)N1OS(=O)(=O)O (some centres unmarked)  MIC (agar dilution; 08-85, mcr-1): > 64 µg/mL
CC[C@H](C)[C@H](NC(=O)CNC(=O)[C@H](CC(=O)O)NC(=O)[C@H](CCCNC(=N)N)NC(=O)[C@@H](NC(=O)[C@H](CC(N)=O)NC(=O)[C@H](CCCNC(=N)N)NC(=O)CNC(=O)[C@@H](NC(=O)[C@H](CCCCN)NC(=O)[C@H](CCC(=O)O)NC(=O)[C@H](CC(C)C)NC(=O)[C@H](CCCCN)NC(=O)[C@H](CCCCN)NC(=O)[C@H](Cc1c[nH]c2ccccc12)NC(=O)[C@H](CO)NC(=O)[C@@H]1CCCN1)C(C)C)[C@@H](C)CC)C(=O)N[C@H](C(=O)N[C@@H](CCCCN)C(=O)N[C@@H](C)C(=O)NCC(=O)N1CCC[C@H]1C(=O)N[C@H](C(=O)N[C@H](C(=O)N[C@@H](CCC(=O)O)C(=O)N[C@H](C(=O)N[C@@H](CC(C)C)C(=O)NCC(=O)O)C(C)C)C(C)C)C(C)C)[C@@H](C)CC  MIC (broth microdilution; K88, Mueller-Hinton broth; 37 °C): 35.2 µg/mL
CCn1c(-c2ccc(OC)cc2)c(-c2ccc(OC)cc2)n(CC)c1=[Se]  MIC (broth microdilution; carbapenem-resistant BAA-2140; 24 h): > 40 µM
CC1(C)[C@H](NC(=O)/C(=N\OCc2cc(=O)c(O)cn2O)c2csc(N)n2)C(=O)N1OS(=O)(=O)O  MIC (agar dilution; 08-85 mcr-1): 1 µg/mL
CC(C)C[C@H](NC(=O)[C@H](CCC(=O)O)NC(=O)[C@H](C)NC(=O)[C@H](CC(C)C)NC(=O)[C@H](CCC(=O)O)NC(=O)[C@H](C)NC(=O)[C@H](CCC(N)=O)NC(=O)[C@H](CC(C)C)NC(=O)[C@H](CCC(=O)O)NC(=O)[C@H](Cc1ccc(O)cc1)NC(=O)[C@H](CC(C)C)NC(=O)[C@H](CCC(N)=O)NC(=O)[C@H](C)NC(=O)[C@H](CCC(=O)O)NC(=O)[C@H](CC(C)C)NC(=O)[C@H](CCC(N)=O)NC(=O)[C@H](C)NC(=O)[C@H](CC(C)C)NC(=O)[C@H](CCC(=O)O)NC(=O)[C@H](C)NC(=O)[C@@H](N)CCC(N)=O)C(N)=O  MIC (K12; 24 h): > 250 µM
CC[C@H](C)[C@H](NC(=O)CN)C(=O)NCC(=O)N[C@@H](C)C(=O)N[C@H](C(=O)N[C@@H](CC(C)C)C(=O)N[C@@H](CCCCN)C(=O)N[C@H](C(=O)N[C@@H](CC(C)C)C(=O)N[C@H](C(=O)N[C@H](C(=O)NCC(=O)N[C@@H](CC(C)C)C(=O)N1CCC[C@H]1C(=O)N[C@@H](C)C(=O)N[C@@H](CC(C)C)C(=O)N[C@H](C(=O)N[C@@H](CO)C(=O)N[C@@H](Cc1c[nH]c2ccccc12)C(=O)N[C@H](C(=O)N[C@@H](CCCCN)C(=O)N[C@@H](CCCNC(=N)N)C(=O)N[C@@H](CCCCN)C(=O)N[C@@H](CCCNC(=N)N)C(=O)N[C@@H](CCC(N)=O)C(=O)N[C@@H](CCC(N)=O)C(N)=O)[C@@H](C)CC)[C@@H](C)CC)[C@@H](C)O)[C@@H](C)O)C(C)C)C(C)C  MIC (broth microdilution; CCARM 1238 resistant; 18 h, 37 °C): 2 µM
CC[C@H](C)[C@H](NC(=O)[C@H](CCCNC(=N)N)NC(=O)[C@H](CO)NC(=O)[C@H](Cc1ccc(O)cc1)NC(=O)[C@@H](NC(=O)[C@@H](NC(=O)[C@H](C)NC(=O)CNC(=O)[C@H](CCCCN)NC(=O)[C@H](CCCCN)NC(=O)CCNC(=O)CCCCCNC(=O)[C@H](CCCNC(=N)N)NC(=O)CCCCCNC(=O)[C@H](CCCNC(=N)N)NC(=O)[C@H](CCCNC(=N)N)NC(=O)CCCCCNC(=O)[C@H](CCCNC(=N)N)NC(=O)[C@H](CCCNC(=N)N)NC(=O)CCCCCNC(=O)[C@H](CCCNC(=N)N)NC(=O)[C@H](CCCNC(=N)N)NC(=O)CCCCCNC(=O)[C@@H](N)CCCNC(=N)N)C(C)C)[C@@H](C)O)C(=O)N[C@@H](CO)C(=O)NCC(=O)N[C@@H](CCC(N)=O)C(=O)N[C@@H](Cc1ccc(O)cc1)C(=O)N[C@@H](CCCCN)C(=O)O  MIC (ATCC 25922; 1 h, 37 °C, serum, fetal bovine, after 12.5%): 6 µM
CCCC[C@H](NC(=O)[C@H](Cc1ccc(O)cc1)NC(=O)[C@@H]1CCCN1C(=O)[C@@H]1CCCN1C(=O)[C@H](CCCCN)NC(=O)[C@H](CC(=O)O)NC(=O)[C@@H](N)C(C)C)C(=O)N1CCC[C@H]1C(=O)N[C@@H](CCCNC(=N)N)C(=O)N1CCC[C@H]1C(=O)N[C@@H](CCCNC(=N)N)C(=O)N1CCC[C@H]1C(=O)N1CCC[C@H]1C(=O)N[C@@H](CCCNC(=N)N)C(=O)N[C@H](CCCNC(=N)N)C(=O)N[C@H](C(=O)N[C@@H](Cc1ccc(O)cc1)C(=O)N[C@@H](CC(N)=O)C(=O)N[C@H](CCCNC(=N)N)C(N)=O)[C@@H](C)CC  MIC (broth microdilution; ATCC 25922; 18 h, 37 °C, 25% MHB2): 8 µg/mL
CC[C@H](C)[C@H](NC(=O)[C@H](Cc1c[nH]c2ccccc12)NC(=O)[C@H](CCCCN)NC(=O)[C@H](CC(C)C)NC(=O)[C@@H](NC(=O)[C@@H](NC(=O)CNC(=O)[C@H](CCCCN)NC(=O)[C@H](Cc1c[nH]cn1)NC(=O)[C@H](CCCCN)NC(=O)[C@H](Cc1c[nH]c2ccccc12)NC(=O)[C@H](C)NC(=O)[C@H](CC(C)C)NC(=O)[C@H](CO)NC(=O)[C@@H](NC(=O)[C@H](Cc1ccc(O)cc1)NC(=O)[C@H](CCCCN)NC(=O)[C@H](CCC(N)=O)NC(=O)CNC(=O)[C@H](CCCCN)NC(=O)[C@@H](NC(=O)[C@H](C)NC(=O)[C@H](CC(C)C)NC(=O)[C@H](Cc1ccccc1)NC(=O)[C@H](CCC(N)=O)NC(=O)[C@@H](NC(=O)[C@H](CC(C)C)NC(=O)[C@H](CCCCN)NC(=O)[C@H](CCSC)NC(=O)[C@H](Cc1ccccc1)NC(=O)[C@H](C)NC(=O)[C@H](C)NC(=O)[C@@H](N)CCSC)[C@@H](C)CC)[C@@H](C)O)C(C)C)[C@@H](C)O)[C@@H](C)CC)C(=O)N[C@@H](CC(N)=O)C(N)=O  MIC (broth microdilution; ML35, smooth, full-length O-chains, Mueller Hinton broth; 24 h, 37 °C): 64 µg/mL
CC[C@H](C)[C@H](NC(=O)[C@@H](NC(=O)[C@H](CCCCN)NC(=O)[C@H](CCCCN)NC(=O)[C@@H](NC(=O)[C@H](Cc1c[nH]c2ccccc12)NC(=O)[C@H](CCCCN)NC(=O)[C@@H](NC(=O)[C@H](CC(C)C)NC(=O)[C@H](CCCCN)NC(=O)[C@H](CCCCN)NC(=O)[C@@H](N)C(C)C)[C@@H](C)CC)[C@@H](C)CC)C(C)C)C(N)=O  MIC (24 h, 37 °C, Mueller-Hinton broth, FeCl3 4 µM): 32 µM
CC[C@H](C)[C@H](NC(=O)[C@@H](CCCNC(=N)N)NC(=O)[C@H](CCCNC(=N)N)NC(=O)[C@H](CO)NC(=O)[C@H](Cc1c[nH]c2ccccc12)NC(=O)[C@H](CCCNC(=N)N)NC(=O)[C@@H]1CCCN1C(=O)[C@H](CCCNC(=N)N)NC(=O)[C@@H]1CCCN1C(=O)[C@H](CC(C)C)NC(=O)[C@H](Cc1ccc(O)cc1)NC(=O)[C@@H]1CCCN1C(=O)[C@@H]1CCCN1C(=O)[C@H](CCCCN)NC(=O)[C@H](CC(=O)O)NC(=O)[C@@H](N)C(C)C)C(=O)N[C@@H](Cc1ccc(O)cc1)C(=O)N[C@@H](CC(N)=O)C(=O)N[C@H](CCCNC(=N)N)C(N)=O  MIC (broth microdilution; MC4100; 18 h, 37 °C, 25% MHB2): 8 µg/mL
CCCCCCCC(=O)N[C@@H](CCN)C(=O)N[C@H](C(=O)N[C@@H](CCN)C(=O)N[C@H]1CCNC(=O)[C@H]([C@@H](C)O)NC(=O)[C@H](CCN)NC(=O)[C@H](CCN)NC(=O)[C@H](CCCc2ccccc2)NC(=O)[C@@H](Cc2ccccc2)NC(=O)[C@H](CCN)NC1=O)[C@@H](C)O  MIC (broth microdilution; ATCC 25922, colistin-susceptible): < 0.125 µg/mL
CC[C@H](C)[C@H](NC(=O)[C@@H](CCCNC(=N)N)NC(=O)[C@H](CCCNC(=N)N)NC(=O)CNC(=O)[C@H](Cc1c[nH]c2ccccc12)NC(=O)[C@H](CCCNC(=N)N)NC(=O)[C@@H]1CCCN1C(=O)[C@H](CCCNC(=N)N)NC(=O)[C@@H]1CCCN1C(=O)[C@H](CC(C)C)NC(=O)[C@H](Cc1ccc(O)cc1)NC(=O)[C@@H]1CCCN1C(=O)[C@@H]1CCCN1C(=O)[C@H](CCCCN)NC(=O)[C@H](CC(=O)O)NC(=O)[C@@H](N)C(C)C)C(=O)N[C@@H](Cc1ccc(O)cc1)C(=O)N[C@@H](CC(N)=O)C(=O)N[C@H](CCCNC(=N)N)C(N)=O  MIC (broth microdilution; BW25113; 18 h, 37 °C, 25% MHB2): 4 µg/mL
CC[C@H](C)[C@H](N)C(=O)N[C@@H](C)C(=O)N[C@@H](CC(C)C)C(=O)N[C@H](CCC(=O)O)C(=O)N[C@H](C(=O)N[C@H]1CCCCNC(=O)[C@H](CC(N)=O)NC(=O)[C@@H](CC(=O)O)NC(=O)[C@H](Cc2c[nH]cn2)NC(=O)[C@@H](Cc2ccccc2)NC(=O)[C@H]([C@@H](C)CC)NC(=O)[C@@H](CCCN)NC1=O)[C@@H](C)CC  MIC (ATCC 25922; 18 h, 37 °C, 0.3 mM ZnSO4 LB): > 64 µg/mL
CC[C@H](C)[C@H](NC(=O)[C@@H](CCCNC(=N)N)NC(=O)[C@H](CCCNC(=N)N)NC(=O)[C@@H]1CCCN1C(=O)[C@@H]1CCCN1C(=O)[C@H](CCCNC(=N)N)NC(=O)[C@@H]1CCCN1C(=O)[C@H](CCCNC(=N)N)NC(=O)[C@@H]1CCCN1C(=O)[C@H](CC(C)C)NC(=O)[C@H](Cc1ccc(O)cc1)NC(=O)[C@@H]1CCCN1C(=O)[C@@H]1CCCN1C(=O)[C@H](CCCCN)NC(=O)[C@H](CCCNC(=N)N)NC(=O)[C@@H](N)C(C)C)C(=O)N[C@@H](Cc1ccc(O)cc1)C(=O)N[C@@H](CC(N)=O)C(=O)N[C@H](CCCNC(=N)N)C(N)=O  MIC (broth microdilution; ATCC 25922; 18 h, 37 °C, 25% MHB2): 8 µg/mL
CSCC[C@H](NC=O)C(=O)N[C@@H](CCCNC(=N)N)C(=O)N[C@H](C(=O)NCC(=O)N[C@@H](CC(N)=O)C(=O)N[C@@H](C)C(=O)N[C@@H](CC(N)=O)C(=O)NCC(=O)N1CCN(c2cc3c(cc2F)c(=O)c(C(=O)O)cn3C2CC2)CC1)[C@@H](C)O  MIC (multistep resistance selection; K-12 MG1655; day 2): 1.56 µM
CO[C@@H](C(N)=O)[C@H](NC(=O)c1ccc(NC(=O)[C@@H](N)Cc2ccccc2)cc1)C(=O)Nc1ccc(C(=O)Nc2ccc(C(=O)Nc3ccc(C(=O)O)c(O)c3OC(C)C)c(O)c2OC(C)C)cc1  MIC (monooxygenase clone; 16 h, 37 °C): 0.063 µg/mL
CC[C@H](C)[C@H](NC(=O)[C@@H](CCCNC(=N)N)NC(=O)[C@H](CCCNC(=N)N)NC(=O)[C@@H]1CCCN1C(=O)[C@@H]1CCCN1C(=O)[C@H](CCCNC(=N)N)NC(=O)[C@@H]1CCCN1C(=O)[C@H](CCCNC(=N)N)NC(=O)[C@@H]1CCCN1C(=O)[C@H](CC(C)C)NC(=O)[C@H](Cc1ccc(O)cc1)NC(=O)[C@@H]1CCCN1C(=O)[C@@H]1CCCN1C(=O)[C@H](CCCCN)NC(=O)[C@H](CC(=O)O)NC(=O)[C@@H](N)C(C)C)C(=O)N[C@@H](Cc1cc(I)c(O)c(I)c1)C(=O)N[C@@H](CC(N)=O)C(=O)N[C@H](CCCNC(=N)N)C(N)=O  MIC (broth microdilution; MC4100; 18 h, 37 °C, 25% MHB2): 8 µg/mL
